Results of several laboratories.
Compare with care: the assays were run in different laboratories.
Target: Testis-specific serine/threonine-protein kinase 3 (TSSK3, Homo sapiens, UniProt Q96PN8)

CN1CC[C@@H](COc2cnc(C#N)cc2-c2ccn3nc(NC(=O)C4CC4)cc3c2)C1  inhibition (enzyme activity, inhibitor; 1 µM): -9%
CCN1CCN(Cc2ccc(NC(=O)c3ccc(C)c(NC(=O)c4cncc(-c5cnn(C)c5)c4)c3)cc2C(F)(F)F)CC1  remaining binding (binding, competition with immobilised ligand; 1 µM): 100%
NC(=O)C[C@H]1CCc2sc3ncnc(O[C@H]4CC[C@H](N5CCOCC5)CC4)c3c21  inhibition (enzyme activity, inhibitor; 10 µM): -5%
CC(C)=CC1OC(C)(C)C2C=C3C(=O)C(Cl)=CC(O)C3C3C(O)C4OC4C(=O)C132 (centres unmarked)  remaining binding (cell-free assay, competition with immobilised ligand; 10 µM): 100%
Cc1cnc2nc1Nc1cccc(c1)COC/C=C/COCc1cc(ccc1OCCN1CCOCC1)N2  remaining binding (binding, competition with immobilised ligand; 0.1 µM): 94%
CNC(=O)C1CCN(c2cc(C)c(F)cc2NC(=O)c2ccc(-c3cc(O)ccc3C)c(C)c2)CC1  remaining binding (binding, competition with immobilised ligand; 1 µM): 99%
COc1c(Cl)cccc1Nc1c(-c2ccncc2C#C[C@@]2(C)CCCN2C(=O)/C=C/CN(C)C)[nH]c2c1C(=O)NCC2  remaining binding (binding, competition with immobilised ligand; 3 µM): 82%
Nc1ncc(-c2cc(-c3cnn(CC(F)(F)F)c3)ncc2F)nc1C(=O)NC1CNCC(F)C1 (centres unmarked)  remaining activity (enzyme activity; 1 µM; reference: DMSO control): 95.8%
CCn1cc(C(=O)O)c(=O)c2c(N)c(F)c(NC3CCCCC3)cc21  inhibition (kinase activity; 0.1 µM, with: ATP at Km): 9.3%
NC(=O)[C@@H](O)C[C@H]1CCc2sc3ncnc(O[C@H]4CC[C@H](N5CCOCC5)CC4)c3c21  inhibition (enzyme activity, inhibitor; 10 µM): 0%
C=CC(=O)N1CCCC(n2c(=O)c3ncccc3n(Cc3ccc(Oc4ccccc4)cc3)c2=O)C1 (centres unmarked)  remaining binding (cell-free assay, competition with immobilised ligand; 1 µM): 73%
Cc1nc2c(F)cc(-c3nc(Nc4ccc(CNC(=O)CCCCCCC(=O)NO)cc4)ncc3F)cc2n1C(C)C  inhibition (enzyme activity, inhibitor; 1 µM): 13%
CNC(=O)C[C@H](Cc1ccc(C#N)cc1)NC(=O)c1cc(-c2ccc(CN[C@H](C)c3ccc(C)cc3)o2)ccc1Cl  activity vs control (enzyme activity, inhibitor; 1 µM): 100%
COc1cc(Nc2nc(C)cc(-c3cnn4nc(OC)ccc34)n2)cc(C(F)(F)F)c1  remaining binding (binding, competition with immobilised ligand; 1 µM): 100%
Nc1ncc2c(n1)-c1c([nH]c3ccc(C4=CCOCC4)cc13)CCC2  remaining binding (binding, competition with immobilised ligand; 1 µM): 100%
COc1cc(Nc2nccc(-c3cnn4nc(OC)ccc34)n2)cc(C(F)(F)F)c1  remaining binding (binding, competition with immobilised ligand; 1 µM): 83%
O=C(Cc1ccc(OCc2ccccc2)cc1)NC1(C(=O)O)CCN(C(=O)c2ccc(-c3cccc(Cl)c3)cc2)CC1  activity vs control (enzyme activity, inhibitor; 10 µM): 103%

For quick reference, copied from above:
COc1c(Cl)cccc1Nc1c(-c2ccncc2C#C[C@@]2(C)CCCN2C(=O)/C=C/CN(C)C)[nH]c2c1C(=O)NCC2  remaining binding (binding, competition with immobilised ligand; 3 µM): 82%
